Published values from different studies.
Compare with care: the assays were run in different laboratories. “And” joins repeats or separate records; there may be more than shown. Numbers after ± are the reported error.

| Compound | assay | test system | conditions | scale | quantity | value |
| --- | --- | --- | --- | --- | --- | --- |
| COC1OC(C)C(O)C(OC2OC(C)C(O)C(OC3OC(C)C(O)C(OS(=O)(=O)O)C3OS(=O)(=O)O)C2OS(=O)(=O)O)C1OS(=O)(=O)O (centres unmarked) | – | human plasma | 128 µg/mL | – | activated partial thromboplastin time | 33.3 ± 0.5 s |
| COc1ccc(NC(=O)c2ccc3[nH]c(-c4ccc(N(C)C)cc4)nc3c2)cn1 | – | CT26, BALB/c mice, subcutaneous syngeneic graft | dose not given, day 2 | – | tumour volume | 43.4 mm3 and 147 mm3 and 59.8 mm3 and 42.4 mm3 and 62.5 mm3 |
| Nc1nc2cc(CC[C@H]3C[C@@H](n4ccc5c(N)ncnc54)[C@H](O)[C@@H]3O)ccc2cc1Br | – | A-427 xenograft, mouse | 3.0 mg/kg/day, day 34 | – | %ΔTGI | 107% |
| COc1cc2c(NC3CCN(C(C)C)CC3)cc(N3CCOCC3)nc2cc1OCCCN1CCCC1 | TMT proteomics, item: NPTXR | 5xFAD mice, hippocampus | dose not given, unit not given | baseline: untreated 5xFAD | protein level difference | -0.167 |
| C=CC(=O)N1CC2C(=O)N(CCN(C)C)c3c(c4cc(Cl)c(-c5c(O)cccc5F)nc4n(-c4c(C)ccnc4C(C)C)c3=O)N2CC1C (centres unmarked) | immunohistochemistry | BALB/c nude mouse, H23-Luc intracranial tumour, brain tissue | 100 mg/kg, 21 days | – | p-ERK level | decreased |
| NC[C@@H](C(=O)Nc1ccc(-c2cn[nH]c2)cc1)c1ccccc1 | tonometry | Macaca cyclopis, ocular normotensive | ocular, 0.03%, 4 h | – | IOP | 17.6 mmHg |
| CCCCCCCCCCCCCCCC(=O)NCCCC[C@H](NC(=O)[C@H](CCC(=O)O)NC(=O)[C@H](Cc1ccc(O)cc1)NC(=O)[C@H](CCC(=O)O)NC(=O)COCC(=O)NCCCOCCOCCOCCCNC(=O)[C@H](Cc1ccccc1)NC(=O)[C@H](CC(N)=O)NC(=O)[C@H](Cc1c[nH]cn1)NC(=O)[C@@H](NC(=O)[C@H](CC(=O)O)NC(=O)[C@H](CCC(N)=O)NC(=O)[C@H](CC(C)C)NC(=O)[C@H](CCCCN)NC(=O)[C@H](CCCCN)NC(=O)[C@H](CCCNC(=N)N)NC(=O)[C@H](CC(C)C)NC(=O)[C@H](Cc1c[nH]c2ccccc12)NC(=O)[C@H](CCC(=O)O)NC(=O)[C@@H](NC(=O)[C@H](CCCNC(=N)N)NC(=O)[C@H](CCC(=O)O)NC(=O)[C@H](CCSC)NC(=O)[C@H](CO)NC(=O)[C@H](CC(N)=O)NC(=O)[C@H](CC(C)C)NC(=O)[C@H](Cc1c[nH]cn1)NC(=O)[C@H](CCCCN)NC(=O)CNC(=O)[C@H](CC(C)C)NC(=O)[C@H](CC(N)=O)NC(=O)[C@H](Cc1c[nH]cn1)NC(=O)[C@H](CCSC)NC(=O)[C@H](CC(C)C)NC(=O)[C@H](CCC(N)=O)NC(=O)[C@@H](NC(=O)[C@H](CCC(=O)O)NC(=O)[C@H](CO)NC(=O)[C@@H](NC(=O)[C@@H](N)CO)C(C)C)[C@@H](C)CC)C(C)C)C(C)C)C(=O)N[C@@H](CCC(=O)O)C(=O)N[C@@H](Cc1ccc(O)cc1)C(=O)N[C@@H](CCC(=O)O)C(N)=O | micro-CT | humanized PTH1R mouse, femur | dose not given | – | bone mineral density | 690 mgHA/cm3 and 512 mgHA/cm3 and 467 mgHA/cm3 |
| C[C@@H](Nc1c(-c2c(F)cc(C#N)cc2F)c(Cl)nc2ncnn12)C(C)(C)C | microtubule stabilization, item: detyrosinated tubulin | wild-type mice, brain | – | – | minimum effective dose | 1 mg/kg |
| COc1c(Cl)cccc1Nc1c(-c2ccncc2C#C[C@@]2(C)CCCN2C(=O)/C=C/CN(C)C)[nH]c2c1C(=O)NCC2 | – | female NOD/SCID mouse, PDX | 50 mg/kg once daily, 21 days, HER2 YVMA | – | tumour growth inhibition | 130% |
| COC1CN([C@H]2CC[C@H]([C@@]3(C)Oc4c(Cl)cc(C(=O)NCc5c(SC)cc(C)[nH]c5=O)c(C)c4O3)CC2)C1 | RNA-seq, item: SLC6A9 | human, whole blood | dose not given, 24 h | baseline: pretreatment baseline | log2 fold change | 1.77 |
| COc1ccc(C(=O)CCc2cc(C(CCc3ccc(O)cc3OC)c3ccc(O)cc3)c(O)cc2OC)cc1 (racemic) | – | human blood | 10 µM, added: A23187 | – | TXB2 level | 1010 ± 349 pg/mL |
| COC1OC(C)C(OC2OC(C)C(O)C(OC3OC(C)C(OC4OC(C)C(O)C(OC5OC(C)C(OC6OC(C)C(O)C(OC7OC(C)C(OC8OC(C)C(O)C(OC9OC(C)C(OC%10OC(C)C(O)C(OC%11OC(C)C(O)C(OS(=O)(=O)O)C%11OS(=O)(=O)O)C%10OS(=O)(=O)O)C(OS(=O)(=O)O)C9OS(=O)(=O)O)C8OS(=O)(=O)O)C(OS(=O)(=O)O)C7OS(=O)(=O)O)C6OS(=O)(=O)O)C(OS(=O)(=O)O)C5OS(=O)(=O)O)C4OS(=O)(=O)O)C(OS(=O)(=O)O)C3OS(=O)(=O)O)C2OS(=O)(=O)O)C(OS(=O)(=O)O)C1OS(=O)(=O)O (centres unmarked) | – | human plasma | 64 µg/mL | – | activated partial thromboplastin time | 92.1 s and 93.2 s and 92.9 s |
| COC(=O)C1CN1S(=O)(=O)c1ccc2cc(C)ccc2c1 (centres unmarked) | – | mouse, Lewis lung carcinoma | ip, 100 mg/kg, 216 h | – | tumour volume | 316 mm3 |
| COC1OC(C)C(OC2OC(C)C(O)C(OC3OC(C)C(OC4OC(C)C(O)C(OC5OC(C)C(OC6OC(C)C(O)C(OC7OC(C)C(OC8OC(C)C(O)C(OS(=O)(=O)O)C8OS(=O)(=O)O)C(OS(=O)(=O)O)C7OS(=O)(=O)O)C6OS(=O)(=O)O)C(OS(=O)(=O)O)C5OS(=O)(=O)O)C4OS(=O)(=O)O)C(OS(=O)(=O)O)C3OS(=O)(=O)O)C2OS(=O)(=O)O)C(OS(=O)(=O)O)C1OS(=O)(=O)O (centres unmarked) | – | human plasma | 8 µg/mL | – | activated partial thromboplastin time | 52.1 s and 50.4 s and 52.4 s |
| O=C1CCC(N2Cc3ccccc3C2=O)C(=O)N1 (centres unmarked) | deuterium-hydrogen exchange | aqueous phosphate buffer | pH 7.4, 37 °C | – | exchange rate constant | -0.0354 h⁻¹ |
| CN1CCC[C@]1(C)/C=C/S(=O)(=O)NC(=O)Nc1c2c(cc3c1CCC3)CCC2 | – | human, whole blood ex vivo | 250 mg single dose, 24 h, single ascending dose, added: LPS and ATP | – | IL-18 inhibition | 98.7% |
| COC1OC(C)C(OS(=O)(=O)O)C(OC2OC(C)C(OS(=O)(=O)O)C(OC3OC(C)C(OS(=O)(=O)O)C(OC4OC(C)C(OS(=O)(=O)O)C(OC5OC(C)C(OS(=O)(=O)O)C(OS(=O)(=O)O)C5OS(=O)(=O)O)C4OS(=O)(=O)O)C3OS(=O)(=O)O)C2OS(=O)(=O)O)C1OS(=O)(=O)O (centres unmarked) | – | human plasma | 64 µg/mL | – | activated partial thromboplastin time | 92.4 s and 92.6 s and 94.3 s |
| Nc1ncc(-c2ccc([C@H]3[C@@H](F)[C@@H](F)C[C@@H](F)[C@H]3F)cc2)cn1 | liver microsome stability | rat liver microsomes | 1 µM | – | hepatic clearance | 6.1 mL/min/kg |
| COC1OC(C)C(OS(=O)(=O)O)C(OC2OC(C)C(OS(=O)(=O)O)C(OC3OC(C)C(OS(=O)(=O)O)C(OC4OC(C)C(OS(=O)(=O)O)C(OS(=O)(=O)O)C4OS(=O)(=O)O)C3OS(=O)(=O)O)C2OS(=O)(=O)O)C1OS(=O)(=O)O (centres unmarked) | – | human plasma | 16 µg/mL | – | activated partial thromboplastin time | 42.1 s and 43.4 s |
| CC(=O)[O-].O.O.[O-]c1ccc(Br)cc1C=NCCN1CCOCC1.[Zn+2] | nitric oxide scavenging | – | 40 µM | – | inhibition | 12.6% |
| COC1OC(C)C(OS(=O)(=O)O)C(OC2OC(C)C(OS(=O)(=O)O)C(OC3OC(C)C(OS(=O)(=O)O)C(OC4OC(C)C(OS(=O)(=O)O)C(OC5OC(C)C(OS(=O)(=O)O)C(OC6OC(C)C(OS(=O)(=O)O)C(OC7OC(C)C(OS(=O)(=O)O)C(OC8OC(C)C(OS(=O)(=O)O)C(OC9OC(C)C(OS(=O)(=O)O)C(OC%10OC(C)C(OS(=O)(=O)O)C(OS(=O)(=O)O)C%10OS(=O)(=O)O)C9OS(=O)(=O)O)C8OS(=O)(=O)O)C7OS(=O)(=O)O)C6OS(=O)(=O)O)C5OS(=O)(=O)O)C4OS(=O)(=O)O)C3OS(=O)(=O)O)C2OS(=O)(=O)O)C1OS(=O)(=O)O (centres unmarked) | – | human plasma | 32 µg/mL | – | activated partial thromboplastin time | 95 s and 97.2 s and 101 s |
| COCC1CN(C2CCN(c3cc(OC)c(Nc4ncc(Br)c(Nc5ccc6c(c5P(C)(C)=O)OCCO6)n4)cc3C)CC2)C1 | RECIST 1.1 | advanced EGFR-mutant NSCLC patients | 30 mg once daily | – | disease control rate | 33.3% |
| COC1OC(C)C(OS(=O)(=O)O)C(OC2OC(C)C(OS(=O)(=O)O)C(OC3OC(C)C(OS(=O)(=O)O)C(OC4OC(C)C(OS(=O)(=O)O)C(OC5OC(C)C(OS(=O)(=O)O)C(OC6OC(C)C(OS(=O)(=O)O)C(OS(=O)(=O)O)C6OS(=O)(=O)O)C5OS(=O)(=O)O)C4OS(=O)(=O)O)C3OS(=O)(=O)O)C2OS(=O)(=O)O)C1OS(=O)(=O)O (centres unmarked) | – | human plasma | 32 µg/mL | – | activated partial thromboplastin time | 81.8 s and 78.8 s |
| O=C(CN1CCOCC1)Nc1ccc(C2CCCCC2)cc1 | liver microsome stability | rat liver microsomes | 1 µM | – | hepatic clearance | 45 mL/min/kg |
| COc1cc(O)ccc1CCC(c1ccc(O)cc1)c1cc2c(c(C)c1O)OC(c1ccc(O)cc1)CC2 (mixture of isomers) | item: RvD5 | human whole blood | 30 µM, added: Escherichia coli | – | amount | 6 ± 2 pg/mL blood |
| COC1OC(C)C(OS(=O)(=O)O)C(OC2OC(C)C(OS(=O)(=O)O)C(OS(=O)(=O)O)C2OS(=O)(=O)O)C1OS(=O)(=O)O (centres unmarked) | – | human plasma | 128 µg/mL | – | activated partial thromboplastin time | 43.3 ± 0.4 s |

Repeated from above:
| Compound | assay | test system | conditions | scale | quantity | value |
| --- | --- | --- | --- | --- | --- | --- |
| COC(=O)C1CN1S(=O)(=O)c1ccc2cc(C)ccc2c1 (centres unmarked) | – | mouse, Lewis lung carcinoma | ip, 100 mg/kg, 216 h | – | tumour volume | 316 mm3 |
| COC1OC(C)C(OC2OC(C)C(O)C(OC3OC(C)C(OC4OC(C)C(O)C(OC5OC(C)C(OC6OC(C)C(O)C(OC7OC(C)C(OC8OC(C)C(O)C(OS(=O)(=O)O)C8OS(=O)(=O)O)C(OS(=O)(=O)O)C7OS(=O)(=O)O)C6OS(=O)(=O)O)C(OS(=O)(=O)O)C5OS(=O)(=O)O)C4OS(=O)(=O)O)C(OS(=O)(=O)O)C3OS(=O)(=O)O)C2OS(=O)(=O)O)C(OS(=O)(=O)O)C1OS(=O)(=O)O (centres unmarked) | – | human plasma | 8 µg/mL | – | activated partial thromboplastin time | 52.1 s and 50.4 s and 52.4 s |
| O=C1CCC(N2Cc3ccccc3C2=O)C(=O)N1 (centres unmarked) | deuterium-hydrogen exchange | aqueous phosphate buffer | pH 7.4, 37 °C | – | exchange rate constant | -0.0354 h⁻¹ |
